Measured values of several laboratories.
A part holds a random share of what one study measured.
UniProt P61077, sequence (whole entry, looked up): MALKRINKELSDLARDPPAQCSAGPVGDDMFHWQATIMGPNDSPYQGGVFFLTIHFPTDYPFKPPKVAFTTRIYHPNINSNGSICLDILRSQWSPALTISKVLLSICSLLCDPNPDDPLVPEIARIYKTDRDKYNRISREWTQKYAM

Sample 1 — technique: RNA Bind-n-Seq; molecule type: RNA; sample: in vitro; tested at: 15 pmol; setting: 4-mer, random 30-nt RNA, single round; together with: 3 µM RocA, 2 mM AMP-PNP; relative to: mean of 4-mers; direction: higher = stronger binding
Target: Eukaryotic initiation factor 4A-I (EIF4A1, Homo sapiens, UniProt P60842, residues 1-406, full length assumed)
UniProt P60842, sequence (whole entry, looked up): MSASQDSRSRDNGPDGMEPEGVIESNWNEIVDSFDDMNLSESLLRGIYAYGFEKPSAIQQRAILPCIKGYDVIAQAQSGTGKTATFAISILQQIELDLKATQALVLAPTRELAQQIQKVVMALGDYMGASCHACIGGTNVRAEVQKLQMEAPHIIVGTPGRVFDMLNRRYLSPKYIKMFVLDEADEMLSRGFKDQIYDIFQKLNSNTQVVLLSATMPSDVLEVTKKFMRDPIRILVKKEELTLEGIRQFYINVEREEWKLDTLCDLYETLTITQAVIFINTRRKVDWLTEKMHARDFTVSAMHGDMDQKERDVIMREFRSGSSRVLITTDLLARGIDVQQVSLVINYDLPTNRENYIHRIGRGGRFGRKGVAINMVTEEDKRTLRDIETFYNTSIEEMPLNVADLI
`CGCA` — result for “4-mer enrichment Z-score”: -0.565.
`GAAG` — result for “4-mer enrichment Z-score”: 1.79.
Under “4-mer enrichment Z-score”, `AUCG` is recorded as -0.523.
For `GAUA`, “4-mer enrichment Z-score” read 0.762.
For `GUUU`, “4-mer enrichment Z-score” read 0.538.
For `GCGC`, “4-mer enrichment Z-score” read 0.541.
`CUCU` — result for “4-mer enrichment Z-score”: -1.01.
For `GCCG`, “4-mer enrichment Z-score” read -0.348.

Sample 2 — technique: aptamer microarray, sandwich; molecule type: DNA with 2'F-ANA; sample: in vitro; tested at: 200 nM; together with: Cy3 exosite-II aptamer, 400 nM; direction: higher = stronger binding; oligonucleotide: GGTTGGTGTGGTTGG
Target: Prothrombin, mature alpha-thrombin (F2, Homo sapiens, UniProt P00734)
Setting: whole 15-mer aptamer, many near background
`2'F-ANA at 1 8 9 10 12 13 15` — result for “mean fluorescence intensity”: 71.9 a.u.
`2'F-ANA at 3 4 6 8 10 11 13 15` — result for “mean fluorescence intensity”: 169 a.u.
Under “mean fluorescence intensity”, `2'F-ANA at 1 4 5 6 7 8 9 12 13 14` is recorded as 44.3 a.u.
`2'F-ANA at 1 2 3 4 8 11 12 13 15`: “mean fluorescence intensity” 239 a.u.
For `2'F-ANA at 1 3 8 9 12 14`, “mean fluorescence intensity” read 147 a.u.
`2'F-ANA at 1 4 5 8 9 10 13 15`: “mean fluorescence intensity” 71.8 a.u.
Under “mean fluorescence intensity”, `2'F-ANA at 1 2 3 7 12 15` is recorded as 451 a.u.
For `2'F-ANA at 2 3 4 8 11 12 13`, “mean fluorescence intensity” read 624 a.u.

Single results of other studies
T1: itself; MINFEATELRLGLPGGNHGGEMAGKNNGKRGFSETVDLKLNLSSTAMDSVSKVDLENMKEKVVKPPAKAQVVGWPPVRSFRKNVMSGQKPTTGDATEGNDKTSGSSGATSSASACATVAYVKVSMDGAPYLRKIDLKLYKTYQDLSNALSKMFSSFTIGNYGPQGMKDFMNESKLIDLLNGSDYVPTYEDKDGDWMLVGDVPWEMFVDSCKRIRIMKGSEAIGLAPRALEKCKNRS
T2: itself; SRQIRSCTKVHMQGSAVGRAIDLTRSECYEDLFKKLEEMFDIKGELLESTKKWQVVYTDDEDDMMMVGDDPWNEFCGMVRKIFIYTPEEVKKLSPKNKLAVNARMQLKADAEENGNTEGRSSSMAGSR
T3: itself; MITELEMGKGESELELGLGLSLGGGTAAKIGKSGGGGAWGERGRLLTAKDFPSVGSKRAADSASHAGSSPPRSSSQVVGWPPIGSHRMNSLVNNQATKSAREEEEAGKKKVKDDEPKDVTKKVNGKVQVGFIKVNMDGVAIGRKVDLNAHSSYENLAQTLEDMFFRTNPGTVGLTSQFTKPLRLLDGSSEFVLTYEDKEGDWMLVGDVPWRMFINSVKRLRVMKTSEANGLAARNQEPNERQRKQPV
T4: itself; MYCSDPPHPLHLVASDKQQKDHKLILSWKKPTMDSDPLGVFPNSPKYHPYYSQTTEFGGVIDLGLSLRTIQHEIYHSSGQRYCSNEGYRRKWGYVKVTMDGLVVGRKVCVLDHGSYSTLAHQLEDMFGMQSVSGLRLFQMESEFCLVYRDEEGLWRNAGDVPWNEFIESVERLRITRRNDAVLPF
B1: IAA16 (Arabidopsis thaliana, UniProt O24407); chain MINFEATELRLGLPGGNHGGEMAGKNNGKRGFSETVDLKLNLSSTAMDSVSKVDLENMKEKVVKPPAKAQVVGWPPVRSFRKNVMSGQKPTTGDATEGNDKTSGSSGATSSASACATVAYVKVSMDGAPYLRKIDLKLYKTYQDLSNALSKMFSSFTIGNYGPQGMKDFMNESKLIDLLNGSDYVPTYEDKDGDWMLVGDVPWEMFVDSCKRIRIMKGSEAIGLAPRALEKCKNRS
B2: ARF1 538-665 (Arabidopsis thaliana, UniProt Q8L7G0); chain SRQIRSCTKVHMQGSAVGRAIDLTRSECYEDLFKKLEEMFDIKGELLESTKKWQVVYTDDEDDMMMVGDDPWNEFCGMVRKIFIYTPEEVKKLSPKNKLAVNARMQLKADAEENGNTEGRSSSMAGSR
B3: ZNRF3 RING domain (UniProt Q9ULT6); chain DTLSSSSTSDCAICLEKYIDGEELRVIPCTHRFHRKCVDPWLLQHHTCPHCRHNIIEQKGNP
B4: IAA13 (Arabidopsis thaliana, UniProt Q38831); chain MITELEMGKGESELELGLGLSLGGGTAAKIGKSGGGGAWGERGRLLTAKDFPSVGSKRAADSASHAGSSPPRSSSQVVGWPPIGSHRMNSLVNNQATKSAREEEEAGKKKVKDDEPKDVTKKVNGKVQVGFIKVNMDGVAIGRKVDLNAHSSYENLAQTLEDMFFRTNPGTVGLTSQFTKPLRLLDGSSEFVLTYEDKEGDWMLVGDVPWRMFINSVKRLRVMKTSEANGLAARNQEPNERQRKQPV
B5: IAA34 (Arabidopsis thaliana, UniProt Q9C5X0); chain MYCSDPPHPLHLVASDKQQKDHKLILSWKKPTMDSDPLGVFPNSPKYHPYYSQTTEFGGVIDLGLSLRTIQHEIYHSSGQRYCSNEGYRRKWGYVKVTMDGLVVGRKVCVLDHGSYSTLAHQLEDMFGMQSVSGLRLFQMESEFCLVYRDEEGLWRNAGDVPWNEFIESVERLRITRRNDAVLPF
With `B1 (IAA16)` the positive tests was 2 (T1, itself; two-hybrid; relative to: out of 4 tests, higher = firmer interaction).
For `FPNLQVDPT`, binding read “inactive” (HLA class I histocompatibility antigen, A alpha chain, allele A*25:01 (Homo sapiens, UniProt P04439); peptide-MHC binding; peptide; concentration not given).
The positive tests of `B2 (ARF1 538-665)` is reported as 0 (T2, itself; two-hybrid; relative to: out of 4 tests, higher = firmer interaction).
`B3 (ZNRF3 RING domain)` — result for “lacZ reporter activity”: 0 (UBE2D3 UBC core domain (UniProt P61077); yeast two-hybrid; yeast; mostly zero background; relative to: not given, higher = stronger interaction).
`B4 (IAA13)` gave a positive tests of 0 (T3, itself; two-hybrid; relative to: out of 4 tests, higher = firmer interaction).
`B5 (IAA34)` has a positive tests of 2 (T4, itself; two-hybrid; relative to: out of 4 tests, higher = firmer interaction).

For quick reference, copied from above (sample 1):
Under “4-mer enrichment Z-score”, `AUCG` is recorded as -0.523.
`GAAG` — result for “4-mer enrichment Z-score”: 1.79.
`CUCU` — result for “4-mer enrichment Z-score”: -1.01.
